Measured values of several laboratories.
Lines come from different studies, so protocols differ. Values joined by “and” are separate records of one study, mostly repeats; a detail may differ. Numbers after ± are the reported error.

SMILES | assay | test system | conditions | scale | quantity | value
Cc1n[nH]c2ccc(-c3cc(OC[C@@H](N)Cc4ccccc4)cnc3-c3ccoc3)cc12 | kinase binding, competitor, MIB/MS competition, refers to: KSP1 | Candida albicans cell lysate | 1 µM | reference: DMSO | log2 fold change | -0.354
O=C1Nc2cc3[nH]nc(-c4ccncc4)c3cc2CN1Cc1ccccc1 | RECIST v1.1 | human, relapsed or refractory advanced solid tumours | intravenous, 6.4 mg/kg | – | partial response, best response | 0%
c1ccc(-c2n[nH]cc2-c2ccnc3ccccc23)nc1 | kinase binding, competitor, MIB/MS competition, refers to: KIN3 | Candida albicans cell lysate | 10 µM | reference: DMSO | log2 fold change | 1.44
CO[C@H]1CC[C@H](N2C(=O)CNc3ncc(-c4ccc(C(C)(C)O)nc4)nc32)CC1 | flow cytometry | stimulated B cells, human, blood | 30 mg single dose, 3 h, median | reference: baseline | pS6RP change from baseline | -73.6%
NC(=O)c1cnc2[nH]ccc2c1N[C@@H]1[C@@H]2CC3C[C@H]1C[C@@](O)(C3)C2 | flow cytometry, refers to: CD8+ effector T cells | Japanese healthy subjects, peripheral blood | oral, 100 mg twice daily, day 7 | – | change from baseline | 0.05%
O=Cc1c(O)cc(C(F)(F)F)cc1C(F)(F)F | HPLC-MS | – | pH 10.2, with: 50 mM N-α-acetyl-lysine | – | pseudo-first-order rate constant | 0 h⁻¹
CSCCNc1nc(SCCC(F)(F)F)nc2c1ncn2[C@@H]1O[C@H](COP(=O)(O)OP(=O)(O)C(Cl)(Cl)P(=O)(O)O)[C@@H](O)[C@H]1O | light transmittance aggregometry | human patients, platelet-rich plasma | dose not given, 2 h, with: ADP 20 µM | – | inhibition of platelet aggregation | 34.1 ± 22.3%
CC(C)NCC(O)c1ccc(O)c(O)c1 (stereo not shown) | – | ventricular cardiomyocytes, C57BL/6 mouse | dose not given, 0.252 s | – | sarcomere length | 1.61 µm
Cc1ccc(NS(=O)(=O)c2ccc(C(C)(C)C)cc2)cc1Cl | CoA-CPM signal reduction, CPM fluorescence thiol | cell-free biochemical | assay interference counter-screen, with: CoA replacing acetyl-CoA | – | IC50 | > 125 µM
O=C(O)CNC(=O)Cc1ccccc1 | – | ventricular cardiomyocytes, C57BL/6 mouse | dose not given, 0.504 s | – | sarcomere length | 1.63 µm
CC(C)n1c(C2CCNCC2)nc2c([N+](=O)[O-])c(Br)c(Br)cc21 | – | patients with AML, bone marrow blasts | all dose levels, median and range | – | cycles to maximum reduction | 3 cycles
C[C@H](Oc1ccc(Br)cc1-c1ccon1)C(=O)O | handgrip dynamometry | healthy human males | 200 mg once daily, multiple doses | reference: placebo | maximum voluntary grip contraction | 4.13 kg
c1ccc(-c2noc(NCc3cccs3)n2)cc1 | CoA-CPM signal reduction, CPM fluorescence thiol | cell-free biochemical | assay interference counter-screen, with: CoA replacing acetyl-CoA | – | IC50 | > 125 µM
CCCCC1(CCCC)CN(c2ccccc2)c2cc(SC)c(OCC(=O)N[C@@H](C(=O)NCC(=O)O)c3ccccc3)cc2S(=O)(=O)C1 | refers to: 7α-hydroxy-4-cholesten-3-one | human, plasma | 15 mg once daily, day 2 | – | plasma C4 | 57.7 ng/mL
CC[C@H](C)/C=C/C(=O)N1CCC[C@H]1C(=O)N[C@@H](CCC1CCCCC1)C(=O)N[C@H](C(=O)NC(C)(C)C(=O)N[C@@H](CC(C)C)C(=O)N[C@@H](CC(C)C)C(=O)NC(C)(C)C(=O)NC(C)(C)C(=O)NCCC(=O)N[C@@H](C)CN(C)C)[C@H](O)C(C)C | – | small unilamellar vesicles | concentration not given | – | calcein leakage | 28.3%
Cn1cc(Nc2nccc(-c3ccc4c(c3)CN(C3COC3)CC[C@H]4NC(=O)c3cn(C(C)(C)C)nn3)n2)cn1 | refers to: small cell lung cancer | splenic B cells, mice | 30 mg/kg, IgD-activated in vivo | reference: vehicle, direction not given | pathway activation z-score | 0.775
OC(CCN1CCCCC1)(c1ccccc1)C1CC2C=CC1C2 (stereo not shown) | resting-state EEG | healthy elderly humans | oral, 2 mg, eyes closed, LS mean | – | EEG Beta1-power Fz-Cz | 2.9 µV²

SMILES | assay | test system | conditions | scale | quantity | value
COc1cc(Nc2ncc3c(n2)-c2ccc(Cl)cc2C(c2c(F)cccc2OC)=NC3)ccc1C(=O)O | – | mouse, NB-1643 neuroblastoma xenograft | 5.2 mg/kg | direction not given | median response score | 6
C[C@@H](NC(=O)N1C(=O)[C@H](Cc2ccnc(N)c2)[C@H]1C(=O)O)C1CCCCC1 | – | human, plasma | continuous intravenous infusion, 0.3 mg/kg/h, days 1 to 6 of 5-day infusion, mean | – | maximum prothrombin time | 13.4 s
C=CC(=O)Nc1cc(Nc2nccc(Nc3cc(Cl)c(F)cc3C(C)(C)O)n2)c(OC)cc1N1CC[C@@H](N(C)C)C1 | – | human, EGFR exon20ins NSCLC | dose not given, dose 100 mg and above | – | confirmed objective response rate | 39.6%
CC(C)c1c(C(=O)Nc2ccccc2)c(-c2ccccc2)c(-c2ccc(F)cc2)n1CC[C@@H](O)C[C@@H](O)CC(=O)O | – | cynomolgus monkey, male, serum | 40 mg/kg or 25 mg/kg, day 86, 2064 h | – | triglycerides | 37.8 mg/dL
Cc1cc(Nc2cc3ncccc3c(N[C@@H]3C[C@H]4CC[C@@H](C3)N4CCC#N)n2)n[nH]1 | – | moderate-severe ulcerative colitis patients | 20 mg, day 28, Mayo subscore, unit not given | reference: baseline | change physician global assessment | 0
Cn1cc([C@H]2C[C@H]3CSC(N)=N[C@@]3(c3ccc(F)cc3F)CO2)cn1 | refers to: Aβx-40 | wild-type mouse, brain | subcutaneous, 10 mg/kg, 1 h | – | brain Aβ40 level | 2.5 ng/g
CC(C)[C@H](C(=O)Nc1ccc(C(=O)NO)cc1)c1ccccc1 | volumetric MRI | human, left schwannoma | dose not given, day 64 | – | tumour volume | 0.119 cm3
O=C(OC(C(F)(F)F)C(F)(F)F)N1CCN(Cc2cccc(Oc3ccccc3)c2)CC1 | PET blocking study | rhesus monkey, brain HIP | 0.3 mg/kg, compound pretreatment, with: [18F]T-401 tracer | – | k3 | 1.68 min⁻¹
Cl.N[C@@H](CC1=CCC(O)(c2nncnn2)C=C1)C(=O)O (stereo partly shown) | iEDDA cycloaddition | aqueous DMSO 25 % | 37 °C, with: TCO-OH 22 mM | – | kobs | 9 s⁻¹
CN(C)C(=O)Nc1cccc(-c2ccc(N(C)C)cc2)c1 | qPCR, refers to: Fasn | high-fat diet-fed mice, liver | dose not given | reference: vehicle-treated obese mice | relative mRNA level | 1.37 and 1.03 and 0.703 and 1.19 and 0.7
CCOCc1nc2c(N)nc3ccccc3c2n1CC(C)(C)O | CD86 expression, flow cytometry | CD20+ B cells in PBMC, human | 100 or 1000 nM | – | CD86 induction | increased
C[C@H]1O[C@@H](O[C@H]2CC[C@@]3(C)[C@@H](CC[C@]4(C)[C@@H]3C=C[C@]35OC[C@@]6(CCC(C)(C)C[C@H]63)[C@@H](O)C[C@]54C)[C@]2(C)CO)[C@H](O)[C@@H](O[C@@H]2O[C@H](CO)[C@@H](O)[C@H](O)[C@H]2O)[C@H]1O | – | chronic-plus-binge ethanol mice, plasma | oral, 15 mg/kg/day for 7 d, 168 h | – | AST activity | 41.4 U/L and 34.5 U/L and 43.3 U/L and 43.7 U/L and 44 U/L
Cc1cccc(Nc2nc(-c3ccccc3)no2)c1 | CoA-CPM signal reduction, CPM fluorescence thiol | cell-free biochemical | assay interference counter-screen, with: CoA replacing acetyl-CoA | – | IC50 | > 125 µM
CN(C)C(=O)c1cc2cnc(Nc3ccc(N4CCNCC4)cn3)nc2n1C1CCCC1 | RNA-seq GSEA, refers to: HALLMARK_UV_RESPONSE_UP gene set | MB002 tumour | concentration not given | reference: vehicle, direction not given | enrichment score | 0.321
C=CCn1c(=O)c2cnc(Nc3ccc(N4CCN(C)CC4)cc3)nc2n1-c1ccc2c(n1)[C@@](O)(CC)CC2 | – | NCI-H1299 xenograft, BALB/c nude mice | oral, 80 mg/kg once daily x 28, day 23 | – | tumour volume difference | 1260 ± 50.7 mm3
Cn1cc(Nc2nc(N)nc(-c3cccc(-n4ccc5cc(C6CC6)cc(F)c5c4=O)c3CO)n2)cn1 | CD63 upregulation, anti-IgE-induced | human, multiple ascending dose, whole blood basophils ex vivo | 150 mg twice daily, day 14, 4 h | – | inhibition | 89.1%
Nc1ccccc1SC1=CS(=O)(=O)c2ccccc21 | CoA-CPM signal reduction, CPM fluorescence thiol | cell-free biochemical | assay interference counter-screen, with: CoA replacing acetyl-CoA | – | IC50 | > 125 µM

For quick reference, copied from above:
SMILES | assay | test system | conditions | scale | quantity | value
C[C@H](Oc1ccc(Br)cc1-c1ccon1)C(=O)O | handgrip dynamometry | healthy human males | 200 mg once daily, multiple doses | reference: placebo | maximum voluntary grip contraction | 4.13 kg
Cn1cc(Nc2nc(N)nc(-c3cccc(-n4ccc5cc(C6CC6)cc(F)c5c4=O)c3CO)n2)cn1 | CD63 upregulation, anti-IgE-induced | human, multiple ascending dose, whole blood basophils ex vivo | 150 mg twice daily, day 14, 4 h | – | inhibition | 89.1%
CCOCc1nc2c(N)nc3ccccc3c2n1CC(C)(C)O | CD86 expression, flow cytometry | CD20+ B cells in PBMC, human | 100 or 1000 nM | – | CD86 induction | increased
NC(=O)c1cnc2[nH]ccc2c1N[C@@H]1[C@@H]2CC3C[C@H]1C[C@@](O)(C3)C2 | flow cytometry, refers to: CD8+ effector T cells | Japanese healthy subjects, peripheral blood | oral, 100 mg twice daily, day 7 | – | change from baseline | 0.05%
